Assay results of several laboratories.
Each numbered part is a random draw from the data of one study; scales do not carry over between parts.
Chain of UniProt Q8TF76 (whole entry, looked up): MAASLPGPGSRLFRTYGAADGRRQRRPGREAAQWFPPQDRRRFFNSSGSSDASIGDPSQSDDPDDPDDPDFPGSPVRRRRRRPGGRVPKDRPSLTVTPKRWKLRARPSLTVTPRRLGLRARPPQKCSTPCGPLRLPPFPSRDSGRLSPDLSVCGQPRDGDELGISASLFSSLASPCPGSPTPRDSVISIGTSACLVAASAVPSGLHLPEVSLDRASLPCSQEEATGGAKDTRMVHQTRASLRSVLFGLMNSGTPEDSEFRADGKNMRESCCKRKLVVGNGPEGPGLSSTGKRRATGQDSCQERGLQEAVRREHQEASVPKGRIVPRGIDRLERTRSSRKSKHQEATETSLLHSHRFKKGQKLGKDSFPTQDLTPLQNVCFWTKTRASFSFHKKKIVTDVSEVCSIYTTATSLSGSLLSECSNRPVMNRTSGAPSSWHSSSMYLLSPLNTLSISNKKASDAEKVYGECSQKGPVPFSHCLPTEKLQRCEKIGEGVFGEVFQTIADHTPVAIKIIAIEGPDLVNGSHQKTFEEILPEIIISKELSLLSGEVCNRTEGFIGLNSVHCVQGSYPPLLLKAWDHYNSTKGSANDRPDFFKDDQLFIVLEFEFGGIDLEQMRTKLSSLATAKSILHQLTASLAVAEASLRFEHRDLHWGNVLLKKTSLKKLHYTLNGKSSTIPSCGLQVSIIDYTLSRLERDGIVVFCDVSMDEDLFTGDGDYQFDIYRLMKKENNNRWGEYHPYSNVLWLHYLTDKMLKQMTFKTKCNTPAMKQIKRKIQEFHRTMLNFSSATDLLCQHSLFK
Chain of UniProt O60285 (whole entry, looked up): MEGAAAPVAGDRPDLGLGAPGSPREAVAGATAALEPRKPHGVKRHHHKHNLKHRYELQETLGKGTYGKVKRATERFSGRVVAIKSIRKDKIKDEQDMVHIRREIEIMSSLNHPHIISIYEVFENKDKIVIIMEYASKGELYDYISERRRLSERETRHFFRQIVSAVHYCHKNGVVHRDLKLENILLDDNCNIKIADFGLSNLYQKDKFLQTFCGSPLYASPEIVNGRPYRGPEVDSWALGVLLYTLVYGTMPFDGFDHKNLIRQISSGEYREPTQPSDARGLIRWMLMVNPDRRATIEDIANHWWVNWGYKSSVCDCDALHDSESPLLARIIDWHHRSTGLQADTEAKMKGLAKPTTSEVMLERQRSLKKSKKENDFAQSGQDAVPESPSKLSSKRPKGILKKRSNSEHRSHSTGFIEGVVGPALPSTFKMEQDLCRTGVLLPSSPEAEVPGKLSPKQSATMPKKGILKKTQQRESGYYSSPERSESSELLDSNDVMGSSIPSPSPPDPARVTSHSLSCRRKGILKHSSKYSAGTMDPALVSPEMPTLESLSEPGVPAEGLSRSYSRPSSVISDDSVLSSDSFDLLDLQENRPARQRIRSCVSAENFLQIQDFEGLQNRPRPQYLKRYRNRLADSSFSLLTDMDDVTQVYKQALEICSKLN
Chain of UniProt P31751 (whole entry, looked up): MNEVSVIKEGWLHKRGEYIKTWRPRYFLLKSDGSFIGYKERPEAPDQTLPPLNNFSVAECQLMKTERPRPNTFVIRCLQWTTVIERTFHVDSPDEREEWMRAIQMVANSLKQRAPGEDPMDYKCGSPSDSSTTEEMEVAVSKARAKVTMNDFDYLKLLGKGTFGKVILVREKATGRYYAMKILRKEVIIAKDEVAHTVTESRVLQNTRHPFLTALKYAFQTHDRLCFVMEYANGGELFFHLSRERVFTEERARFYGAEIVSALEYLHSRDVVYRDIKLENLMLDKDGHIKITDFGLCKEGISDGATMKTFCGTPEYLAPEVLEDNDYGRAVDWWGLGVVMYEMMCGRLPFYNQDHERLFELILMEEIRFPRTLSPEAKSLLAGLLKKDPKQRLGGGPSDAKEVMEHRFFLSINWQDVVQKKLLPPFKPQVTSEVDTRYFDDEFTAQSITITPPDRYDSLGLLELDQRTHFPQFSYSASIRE
Chain of UniProt Q9H422 (whole entry, looked up): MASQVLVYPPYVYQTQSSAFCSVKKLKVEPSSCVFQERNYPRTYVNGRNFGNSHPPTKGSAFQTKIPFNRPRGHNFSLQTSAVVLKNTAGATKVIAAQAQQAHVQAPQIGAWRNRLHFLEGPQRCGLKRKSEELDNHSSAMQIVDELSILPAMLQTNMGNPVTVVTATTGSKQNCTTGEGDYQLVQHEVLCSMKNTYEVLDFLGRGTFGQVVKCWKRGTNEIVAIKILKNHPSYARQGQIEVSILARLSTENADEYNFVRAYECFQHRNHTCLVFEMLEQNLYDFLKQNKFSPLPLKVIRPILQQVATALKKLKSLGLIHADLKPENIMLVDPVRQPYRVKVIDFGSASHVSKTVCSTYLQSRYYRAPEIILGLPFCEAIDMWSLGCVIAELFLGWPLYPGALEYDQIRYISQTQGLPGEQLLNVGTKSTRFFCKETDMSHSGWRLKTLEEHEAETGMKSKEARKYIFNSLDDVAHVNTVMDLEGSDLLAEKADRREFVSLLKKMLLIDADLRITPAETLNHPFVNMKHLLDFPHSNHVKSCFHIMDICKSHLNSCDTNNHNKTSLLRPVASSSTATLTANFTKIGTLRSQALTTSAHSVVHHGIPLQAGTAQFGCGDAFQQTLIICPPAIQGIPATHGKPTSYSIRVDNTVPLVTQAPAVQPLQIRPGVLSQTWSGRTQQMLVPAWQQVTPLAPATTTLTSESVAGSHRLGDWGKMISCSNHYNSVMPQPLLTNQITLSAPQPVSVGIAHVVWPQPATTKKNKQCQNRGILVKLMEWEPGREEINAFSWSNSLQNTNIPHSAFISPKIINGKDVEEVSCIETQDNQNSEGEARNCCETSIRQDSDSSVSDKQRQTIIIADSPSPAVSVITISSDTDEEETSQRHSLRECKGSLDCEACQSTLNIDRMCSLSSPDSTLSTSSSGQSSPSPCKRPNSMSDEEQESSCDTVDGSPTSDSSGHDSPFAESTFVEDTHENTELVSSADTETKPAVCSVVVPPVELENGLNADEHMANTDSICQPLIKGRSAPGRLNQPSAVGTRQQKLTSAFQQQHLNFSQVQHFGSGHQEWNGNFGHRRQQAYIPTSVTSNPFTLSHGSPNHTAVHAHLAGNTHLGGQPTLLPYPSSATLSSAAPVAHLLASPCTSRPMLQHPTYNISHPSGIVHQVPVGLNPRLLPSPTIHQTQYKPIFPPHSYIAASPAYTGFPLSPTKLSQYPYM
Chain of UniProt O00506 (whole entry, looked up): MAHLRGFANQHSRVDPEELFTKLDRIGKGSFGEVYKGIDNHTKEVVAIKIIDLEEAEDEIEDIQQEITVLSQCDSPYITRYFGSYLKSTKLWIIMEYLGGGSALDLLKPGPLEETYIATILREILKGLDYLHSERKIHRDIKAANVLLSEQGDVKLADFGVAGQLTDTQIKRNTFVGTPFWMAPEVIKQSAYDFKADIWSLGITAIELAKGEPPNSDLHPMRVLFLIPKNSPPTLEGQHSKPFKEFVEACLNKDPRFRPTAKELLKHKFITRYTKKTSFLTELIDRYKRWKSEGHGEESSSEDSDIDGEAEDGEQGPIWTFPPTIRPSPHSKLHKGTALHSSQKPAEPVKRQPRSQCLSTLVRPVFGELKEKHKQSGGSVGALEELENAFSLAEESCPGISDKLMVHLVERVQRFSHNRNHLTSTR

Series 1 — observed: binding; method: competition with immobilised ligand; tested at: 1 µM
Structure (SMILES): COc1cc(-c2nc3ccc(C(=O)NCCCN(C)C)cc3n2C2CCC2)cc(OC)c1OC
target	remaining binding
Mitogen-activated protein kinase kinase kinase kinase 2 (MAP4K2, Homo sapiens, UniProt Q12851)	86%
Serine/threonine-protein kinase TAO1 (TAOK1, Homo sapiens, UniProt Q7L7X3)	100%
Dual specificity tyrosine-phosphorylation-regulated kinase 1A (DYRK1A, Homo sapiens, UniProt Q13627)	67%
Serine/threonine-protein kinase haspin (HASPIN, Homo sapiens, UniProt Q8TF76)	39%
Receptor tyrosine-protein kinase erbB-4 (ERBB4, Homo sapiens, UniProt Q15303)	82%
Protein kinase C iota type (PRKCI, Homo sapiens, UniProt P41743)	86%
Megakaryocyte-associated tyrosine-protein kinase (MATK, Homo sapiens, UniProt P42679)	65%
Cyclin-dependent kinase-like 5 (CDKL5, Homo sapiens, UniProt O76039)	100%
Myosin-IIIb (MYO3B, Homo sapiens, UniProt Q8WXR4)	100%
Fibroblast growth factor receptor 4 (FGFR4, Homo sapiens, UniProt P22455)	94%
ALK tyrosine kinase receptor (ALK, Homo sapiens, UniProt Q9UM73, C1156Y)	95%
Aurora kinase B (AURKB, Homo sapiens, UniProt Q96GD4)	92%
Mast/stem cell growth factor receptor Kit (KIT, Homo sapiens, UniProt P10721, A829P)	84%

Series 2 — observed: thermal unfolding; method: differential scanning fluorimetry; tested at: 5.5 µM; direction: higher = more unfolded
Compound: C[C@@H]1CN(c2ccc(-c3cc(C(=O)NCCOCCOCCOCCOCCNC(=O)/C=C/c4[nH]cc(C(=O)N[C@@H](CC(N)=O)c5ccc(F)c(Cl)c5)c4-c4ccc(Cl)cc4F)ccc3F)cc2NC(=O)c2c[nH]c(=O)cc2C(F)(F)F)C[C@H](C)N1C
WDR5: WD repeat-containing protein 5 (WDR5, Homo sapiens, UniProt P61964)
DCAF1: DDB1- and CUL4-associated factor 1 (DCAF1, Homo sapiens, UniProt Q9Y4B6)
Chain of UniProt Q9Y4B6 (whole entry, looked up): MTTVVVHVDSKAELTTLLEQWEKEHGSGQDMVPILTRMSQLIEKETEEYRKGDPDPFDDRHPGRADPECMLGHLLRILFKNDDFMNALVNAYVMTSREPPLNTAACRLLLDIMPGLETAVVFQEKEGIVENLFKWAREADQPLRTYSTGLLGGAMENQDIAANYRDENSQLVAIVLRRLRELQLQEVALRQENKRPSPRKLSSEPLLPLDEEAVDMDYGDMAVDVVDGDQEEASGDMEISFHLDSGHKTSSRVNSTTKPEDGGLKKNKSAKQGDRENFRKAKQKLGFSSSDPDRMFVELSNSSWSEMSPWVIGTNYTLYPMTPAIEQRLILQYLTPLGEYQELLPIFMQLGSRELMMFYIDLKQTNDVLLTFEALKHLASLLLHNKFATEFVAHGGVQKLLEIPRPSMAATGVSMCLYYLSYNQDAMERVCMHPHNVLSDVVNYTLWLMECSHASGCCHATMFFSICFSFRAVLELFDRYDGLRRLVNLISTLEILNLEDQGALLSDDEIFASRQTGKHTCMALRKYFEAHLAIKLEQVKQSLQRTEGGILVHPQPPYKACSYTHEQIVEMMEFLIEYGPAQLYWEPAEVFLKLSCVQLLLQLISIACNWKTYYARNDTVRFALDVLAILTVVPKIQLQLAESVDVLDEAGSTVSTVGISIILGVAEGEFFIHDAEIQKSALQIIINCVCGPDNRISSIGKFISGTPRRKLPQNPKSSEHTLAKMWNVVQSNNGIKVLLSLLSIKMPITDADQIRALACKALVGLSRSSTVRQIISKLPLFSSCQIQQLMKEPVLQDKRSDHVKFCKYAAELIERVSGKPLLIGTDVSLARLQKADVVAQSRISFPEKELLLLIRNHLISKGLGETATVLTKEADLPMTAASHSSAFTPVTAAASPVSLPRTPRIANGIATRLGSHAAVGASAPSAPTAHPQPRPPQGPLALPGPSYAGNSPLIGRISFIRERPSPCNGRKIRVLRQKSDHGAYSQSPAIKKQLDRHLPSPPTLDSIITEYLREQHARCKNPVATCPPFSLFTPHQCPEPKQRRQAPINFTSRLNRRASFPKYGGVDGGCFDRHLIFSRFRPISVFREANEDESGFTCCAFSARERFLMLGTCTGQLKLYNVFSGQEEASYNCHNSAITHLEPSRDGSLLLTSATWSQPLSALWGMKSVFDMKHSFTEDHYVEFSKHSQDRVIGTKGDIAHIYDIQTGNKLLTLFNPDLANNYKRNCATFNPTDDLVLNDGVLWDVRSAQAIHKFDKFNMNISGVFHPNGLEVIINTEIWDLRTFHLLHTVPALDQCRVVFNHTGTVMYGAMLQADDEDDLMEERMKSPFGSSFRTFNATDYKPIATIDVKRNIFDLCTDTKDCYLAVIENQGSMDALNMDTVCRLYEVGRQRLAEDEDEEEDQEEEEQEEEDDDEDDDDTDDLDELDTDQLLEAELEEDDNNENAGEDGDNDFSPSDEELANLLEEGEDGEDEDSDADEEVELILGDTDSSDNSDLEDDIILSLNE
target	temperature	SYPRO Orange fluorescence [a.u.]
WDR5	45.8 °C	15500
DCAF1	67.21 °C	58800
DCAF1	88.41 °C	36700
DCAF1	31.2 °C	9660
WDR5	31 °C	12800
DCAF1	87.61 °C	37300
WDR5	46.4 °C	15600
DCAF1	36 °C	10400

Series 3 — observed: kinase activity
SMILES: CN(C1COC1)C(C)(C)/C=C(\C#N)C(=O)N1CCC[C@H]1Cn1nc(-c2ccc(Oc3ccccc3)cc2F)c2c(N)ncnc21
target	tested at	inhibition [%]
Aurora kinase C (AURKC, Homo sapiens, UniProt Q9UQB9)	1 µM	-3
Ephrin type-B receptor 2 (EPHB2, Homo sapiens, UniProt P29323)	1 µM	1
Mitogen-activated protein kinase kinase kinase kinase 4 (MAP4K4, Homo sapiens, UniProt O95819)	1 µM	-1
Proto-oncogene tyrosine-protein kinase receptor Ret (RET, Homo sapiens, UniProt P07949)	0.1 µM	4
Homeodomain-interacting protein kinase 3 (HIPK3, Homo sapiens, UniProt Q9H422)	0.1 µM	4
Ephrin type-A receptor 1 (EPHA1, Homo sapiens, UniProt P21709)	1 µM	7
NUAK family SNF1-like kinase 1 (NUAK1, Homo sapiens, UniProt O60285)	0.1 µM	3
Protein kinase C zeta type (PRKCZ, Homo sapiens, UniProt Q05513)	1 µM	-2
Serine/threonine-protein kinase 25 (STK25, Homo sapiens, UniProt O00506)	0.1 µM	6
Epidermal growth factor receptor (EGFR, Homo sapiens, UniProt P00533)	1 µM	21
Serine/threonine-protein kinase SIK2 (SIK2, Homo sapiens, UniProt Q9H0K1)	1 µM	0
RAC-beta serine/threonine-protein kinase (AKT2, Homo sapiens, UniProt P31751)	1 µM	-2

Series 4 — tested at: 1 µM
SMILES: CC[C@@]1(c2cccc(-c3c(F)cncc3OC)c2)C2=C(Nc3n[nH]cc31)[C@H](F)C(C)(C)CC2=O (single isomer, unassigned)
target	observed	method	relative to	remaining binding [%]
1-phosphatidylinositol 3-phosphate 5-kinase (PIKFYVE, Homo sapiens, UniProt Q9Y2I7)	binding	competition with immobilised ligand	–	81
Tyrosine-protein kinase ABL1, phosphorylated (ABL1, Homo sapiens, UniProt P00519, F317I)	binding	competition with immobilised ligand	–	63
Glycogen synthase kinase-3 alpha (GSK3A, Homo sapiens, UniProt P49840)	binding	competition with immobilised ligand	–	0
Tyrosine-protein kinase ABL1, non-phosphorylated (ABL1, Homo sapiens, UniProt P00519, T315I)	kinase binding	KINOMEscan	DMSO control	90
Hepatocyte growth factor receptor (MET, Homo sapiens, UniProt P08581, Y1235D)	kinase binding	KINOMEscan	DMSO control	75
Receptor-type tyrosine-protein kinase FLT3 (FLT3, Homo sapiens, UniProt P36888)	binding	competition with immobilised ligand	–	99
Cyclin-dependent kinase 9 (CDK9, Homo sapiens, UniProt P50750)	kinase binding	KINOMEscan	DMSO control	100
Mitogen-activated protein kinase 12 (MAPK12, Homo sapiens, UniProt P53778)	kinase binding	KINOMEscan	DMSO control	70
Ephrin type-A receptor 6 (EPHA6, Homo sapiens, UniProt Q9UF33)	binding	competition with immobilised ligand	–	94
Ribosomal protein S6 kinase beta-1 (RPS6KB1, Homo sapiens, UniProt P23443)	binding	competition with immobilised ligand	–	83
Cyclin-dependent kinase 15 (CDK15, Homo sapiens, UniProt Q96Q40)	binding	competition with immobilised ligand	–	96
Receptor-interacting serine/threonine-protein kinase 1 (RIPK1, Homo sapiens, UniProt Q13546)	binding	competition with immobilised ligand	–	100

Repeated from above (series 4):
target	observed	method	relative to	remaining binding [%]
Glycogen synthase kinase-3 alpha (GSK3A, Homo sapiens, UniProt P49840)	binding	competition with immobilised ligand	–	0
Tyrosine-protein kinase ABL1, non-phosphorylated (ABL1, Homo sapiens, UniProt P00519, T315I)	kinase binding	KINOMEscan	DMSO control	90
Hepatocyte growth factor receptor (MET, Homo sapiens, UniProt P08581, Y1235D)	kinase binding	KINOMEscan	DMSO control	75
